Assay results collected from several papers.
Every numbered part comes from another study and shows a few of its results, in no order. Changes are numbered by the printed parent chain.

Set 1 — method: aptamer microarray, sandwich; form: DNA with 2'F-ANA; sample: in vitro; tested at: 200 nM; added: Cy3 exosite-II aptamer, 400 nM; reading: higher = stronger binding; strand: GGTTGGTGTGGTTGG
Target: Prothrombin, mature alpha-thrombin (F2, Homo sapiens, UniProt P00734)
Setting: whole 15-mer aptamer, many near background
For `2'F-ANA at 4 8 10 11 12 14 15`, “mean fluorescence intensity” read 58.4 a.u.
For `2'F-ANA at 3 4 5 6 8 9 10 12`, “mean fluorescence intensity” read 58.5 a.u.
`2'F-ANA at 2 3 5 9`: “mean fluorescence intensity” 116 a.u.
`2'F-ANA at 1 7 8 11 14`: “mean fluorescence intensity” 58.8 a.u.
Under “mean fluorescence intensity”, `2'F-ANA at 2 3 6 12 13 14` is recorded as 458 a.u.

Set 2 — method: protein-binding microarray; form: double-stranded DNA, one strand shown; sample: in vitro; tested at: not given; reading: higher = stronger binding
Target: TATA-box-binding protein 1 (TBP1, Arabidopsis thaliana, UniProt P28147, residues 1-200, full length assumed)
Setting: k-mer, scored over probes, only values ≥0.25
Residues (chain): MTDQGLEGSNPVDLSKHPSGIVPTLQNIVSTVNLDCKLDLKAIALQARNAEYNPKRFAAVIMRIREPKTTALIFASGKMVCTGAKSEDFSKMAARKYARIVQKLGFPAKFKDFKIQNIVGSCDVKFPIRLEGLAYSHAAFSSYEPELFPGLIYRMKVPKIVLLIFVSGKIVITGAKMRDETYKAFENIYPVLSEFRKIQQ
`ATAAGCA` gave an E-score of 0.267.
The E-score of `GGCTTTA` is reported as 0.281.
The E-score of `GCTTAAA` is reported as 0.401.
The E-score of `ATAACCG` is reported as 0.264.

Set 3 — target: CCNA1, cyclin fold, Cln2 fusion (human); method: yeast growth competition, sequencing; sample: yeast; setting: weak parent motif; reference: not given; reading: higher = stronger binding
Parent: ORC1 docking peptide (human); PRARKRLELGNLG
`PRARKRLEKGNLG [L9K]`: “normalised enrichment score” 0.581.
`PRARKRLELWNLG [G10W]` — result for “normalised enrichment score”: 0.682.
For `PRARKRLELGNLC [G13C]`, “normalised enrichment score” read 0.452.
`PCARKRLELGNLG [R2C]` — result for “normalised enrichment score”: 0.165.

Mixed results
With `PhoQ, residues 284 288 289 292 302 303 SASVAL` the fold induction was 8.6 (PhoP, residues 12 14 15 18 19 LYHSL (Escherichia coli, UniProt P23836); Sort-seq, item: YFP reporter; E. coli; PhoQ-PhoP variant library, added: 10 µM Mg2+; reference: high Mg2+ state, higher = stronger signaling).

For quick reference, copied from above (set 2):
The E-score of `ATAACCG` is reported as 0.264.
